Measured values collected from several papers.
A part holds a random share of what one study measured.

Set 1
Target: Histone acetyltransferase KAT6A, winged helix 2, GST fusion (KAT6A, Homo sapiens, UniProt Q92794, residues 85-181)
Method: protein binding microarray
Molecule type: double-stranded DNA, one strand shown
Matrix: in vitro
Concentration: not given
Notes: 8-mer, flanks averaged, mean of 2 arrays, mostly near background
Baseline: not given
Direction: higher = stronger binding
Target sequence (chain): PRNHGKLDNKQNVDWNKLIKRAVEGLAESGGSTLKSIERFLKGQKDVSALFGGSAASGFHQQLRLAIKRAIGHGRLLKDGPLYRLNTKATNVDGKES
With `CTCGGTAA` the E-score was -0.0588.
`AATAAGGG` gave an E-score of -0.165.
`AGATAACA` gave an E-score of 0.0324.
`GAAGCTTA` gave an E-score of -0.0332.
`AGAGACAT` gave an E-score of -0.0189.
For `GATGGGCC`, the E-score was 0.0313.

Set 2
Target: Prothrombin, mature alpha-thrombin (F2, Homo sapiens, UniProt P00734)
Method: aptamer microarray, sandwich
Molecule type: DNA with 2'F-ANA
Matrix: in vitro
Concentration: 200 nM
Notes: whole 15-mer aptamer, many near background
Together with: Cy3 exosite-II aptamer, 400 nM
Direction: higher = stronger binding
Oligonucleotide: GGTTGGTGTGGTTGG
`2'F-ANA at 1 3 5 6 7 8 9 10 13 14` — result for “mean fluorescence intensity”: 44 a.u.
`2'F-ANA at 2 4 5 8 9 12 15` — result for “mean fluorescence intensity”: 156 a.u.
Under “mean fluorescence intensity”, `2'F-ANA at 1 2 3 5 8 14 15` is recorded as 111 a.u.
`2'F-ANA at 2 3 5 6 9 12 14`: “mean fluorescence intensity” 51.9 a.u.
`2'F-ANA at 4 5 9 14 15`: “mean fluorescence intensity” 46.5 a.u.

Set 3
Target: Interferon regulatory factor 7, full length, phosphomimetic (IRF7, Homo sapiens, UniProt Q92985, residues 1-503, S471D/S472D/S475D/S476D/S477D/S483D/S484D/S487D)
Sequence of UniProt Q92985 (whole entry, unmodified, looked up): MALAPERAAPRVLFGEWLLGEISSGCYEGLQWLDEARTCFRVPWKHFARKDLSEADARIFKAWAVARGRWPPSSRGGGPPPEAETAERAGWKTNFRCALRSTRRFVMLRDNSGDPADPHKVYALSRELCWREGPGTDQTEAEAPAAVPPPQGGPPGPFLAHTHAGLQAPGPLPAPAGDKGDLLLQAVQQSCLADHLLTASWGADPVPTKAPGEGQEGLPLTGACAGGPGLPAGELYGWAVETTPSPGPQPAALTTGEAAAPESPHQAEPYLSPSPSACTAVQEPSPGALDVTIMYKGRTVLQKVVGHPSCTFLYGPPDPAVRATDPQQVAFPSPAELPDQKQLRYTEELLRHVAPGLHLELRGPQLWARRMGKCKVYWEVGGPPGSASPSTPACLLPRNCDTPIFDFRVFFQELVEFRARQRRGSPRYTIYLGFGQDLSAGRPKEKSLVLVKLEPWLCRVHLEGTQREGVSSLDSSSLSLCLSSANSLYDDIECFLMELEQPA
Method: protein-binding microarray
Molecule type: double-stranded DNA, one strand shown
Matrix: in vitro
Concentration: 2200 nM top
Notes: 60-bp whole probe
Together with: salmon DNA 0.4 mg/ml
Baseline: random background probes
Direction: higher = stronger binding
All sequences stand within: GCCTAGCAC … GTCTTGATTCGCTTGACGCTGCTG
`GACGGTATCGGGATCGGGACGTGCTAG`: “fitted relative affinity” -0.254 z-score.
`TTAGAACTGGGGTAGCGATTAGTGCTA`: “fitted relative affinity” -0.748 z-score.
For `GACGGGATCGGGACTGGGGACGTGCTA`, “fitted relative affinity” read -0.856 z-score.
`ATATATATATTATATATTTATGTGCTA` — result for “fitted relative affinity”: 0.375 z-score.
`TCATAATTCACTATTACACTGTGCTAG` — result for “fitted relative affinity”: 0.913 z-score.

Mixed results
For `PhoQ, residues 284 288 289 292 302 303 TAVSDG`, the fold induction was 7.53 (PhoP, residues 12 14 15 18 19 SEGLL (Escherichia coli, UniProt P23836); Sort-seq, item: YFP reporter; E. coli; PhoQ-PhoP variant library, together with: 10 µM Mg2+; baseline: high Mg2+ state, higher = stronger signaling).

Excerpt of the above (set 2):
`2'F-ANA at 4 5 9 14 15`: “mean fluorescence intensity” 46.5 a.u.
`2'F-ANA at 1 3 5 6 7 8 9 10 13 14` — result for “mean fluorescence intensity”: 44 a.u.
